Experimental data from different studies.
Every numbered part comes from another study and shows a few of its results, in no order.

Set 1
Target: Histone acetyltransferase KAT6A, winged helix 1, GST fusion (KAT6A, Homo sapiens, UniProt Q92794, residues 1-85)
Method: protein binding microarray
Molecule type: double-stranded DNA, one strand shown
Sample: in vitro
Tested at: not given
Notes: 8-mer, flanks averaged, mean of 2 arrays, mostly near background
Reference: not given
Reading: higher = stronger binding
Target sequence (chain): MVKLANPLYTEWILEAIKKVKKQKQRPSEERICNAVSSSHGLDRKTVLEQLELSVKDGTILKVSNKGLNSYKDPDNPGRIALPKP
The E-score of `CTTTCACA` is reported as -0.119.
`ATACTCTG` has an E-score of 0.0366.
For `ATGCTTCG`, the E-score was -0.0321.
With `AGCCTTAT` the E-score was -0.173.
The E-score of `GCTTCTCC` is reported as 0.00579.
For `ATCACGGA`, the E-score was 0.176.
With `AATCTTGG` the E-score was -0.105.
`GCGGCCAA` has an E-score of 0.213.
For `GCAAGCCA`, the E-score was -0.129.

Set 2
Target: Interferon regulatory factor 5, full length, phosphomimetic (IRF5, Homo sapiens, UniProt Q13568-2, residues 1-514, K96S/S451D/S453D/S456D/S462D)
Method: protein-binding microarray
Molecule type: double-stranded DNA, one strand shown
Sample: in vitro
Tested at: 250 nM
Notes: 60-bp whole probe
Together with: salmon DNA 0.4 mg/ml
Reference: random background probes
Reading: higher = stronger binding
Constant ends, left off below: GCCTAGCAC … GTCTTGATTCGCTTGACGCTGCTG
For `TCAATTCTCTGCTTGCGACTGTGCTAG`, the log fluorescence was 0.571 z-score.
`TTAGGGATCCTTCTCCTTTAGTGCTAG` has a log fluorescence of -0.417 z-score.
The log fluorescence of `TAGTATATACACTTATGACTGTGCTAG` is reported as 0.324 z-score.
With `GACGGTTCCGGTATCGGGACGTGCTAG` the log fluorescence was 1.77 z-score.
For `GACGGTTTCGACACTGGGGATGTGCTA`, the log fluorescence was 4.68 z-score.
The log fluorescence of `GACGAACTGGGGTATCTAGACGTGCTA` is reported as -0.297 z-score.
For `TTAGGTCTCAGTATCGATTAGTGCTAG`, the log fluorescence was 6.39 z-score.
The log fluorescence of `GACGGTCTCCTCCTGCTGACGTGCTAG` is reported as -0.425 z-score.
With `TTAGGTCCCCTTTTCCTTTAGTGCTAG` the log fluorescence was -0.0873 z-score.
The log fluorescence of `GCAGACTACCTATGAGTATCGTGCTAG` is reported as 0.0934 z-score.
The log fluorescence of `GACGATTTCAGTATCGAGACGTGCTAG` is reported as 3.74 z-score.

Set 3
Target: RING finger protein unkempt homolog, zinc fingers 1-6, GST-SBP tag (UNK, Homo sapiens, UniProt Q9C0B0, residues 30-357)
Sequence of UniProt Q9C0B0 (30-357, looked up): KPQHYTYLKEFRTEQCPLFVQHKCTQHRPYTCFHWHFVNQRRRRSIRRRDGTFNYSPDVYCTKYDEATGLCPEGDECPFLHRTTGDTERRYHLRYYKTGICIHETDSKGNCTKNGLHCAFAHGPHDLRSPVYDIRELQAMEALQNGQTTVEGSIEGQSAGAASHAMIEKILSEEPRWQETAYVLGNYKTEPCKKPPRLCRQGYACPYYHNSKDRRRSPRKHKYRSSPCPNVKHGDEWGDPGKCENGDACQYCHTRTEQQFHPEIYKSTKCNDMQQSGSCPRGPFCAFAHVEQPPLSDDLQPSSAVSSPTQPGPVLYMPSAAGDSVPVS
Method: RNA Bind-n-Seq
Molecule type: RNA
Sample: in vitro
Tested at: not given
Notes: RNA with constant flanks, human-mouse chimeric sites, ends assumed
Reference: input RNA pool
Reading: higher = stronger binding
Constant ends, left off below: GGGAGUUCUACAGUCCGACGAUC … CAACAGAGGAUUGAGCAUCA
For `CUUAAUGUUAAUAUUUUUGAAUAAAUGUAAAACCAUGGUCUGCUUUUGGUACAACACGCAUUAAUAAAAGGUUAAGUAAGUUUUGUUACUGAAGUACUAUUUAACAUCUCAGAAAAAAAC`, the bound/input enrichment was 0.264 ratio.
The bound/input enrichment of `CCCUCCCCGGGCCACCCACCCCUCCCGGCUCCCCGCCGAGAUCCAGGUUUCUUCUUAUUUCAUAGCAAAUAAGAAAAAUGUUCUACGCACAUUUUGUUCUCAGUAAACGAGGGCCUCUGG` is reported as 0.661 ratio.
`CUGAAAAACACAGAUAUCAAAGUUGUUGACUUUGGAAGUGCAACGUAUGACGACGAACAUCACAGUACUUUGGUGUCUACCCGGCACUACAGAGCUCCCGAGGUCAUUUUGGCUCUAGGU` gave a bound/input enrichment of 0.223 ratio.
`GAUCAUGAACCACCAUCAGAAAUGAAGGAUGAGACUACCAGACGAGCCAAAACAGCUGCGCUACAGAAAAGUAAACUUAACCUUGCAGAGUUCCUUAAUGAAGAUACUAAGUUAGGAAGC` gave a bound/input enrichment of 0.321 ratio.
For `GCUGAAAAUGAAGAAGAGGCAGCUGAUGUCUGGUACAACUUGGGACACAUAGCUGUGGGAAUCGGAGAUACAAACUUGGCCCACCAAUGCUUCAGGCUGGCCCUGGUCAACAACAACCAC`, the bound/input enrichment was 0.15 ratio.
`CUGGCACUCUAUCAGAUAUAUUAAUUUUUUAAUGUAGAUAAAAUUUCAAAAAUGAAUGGCUACUUUACACGUUUAACUAGGCUCUUACUAUAUAUGUGUACAUAUGUAUAUAUAUAUAUA` has a bound/input enrichment of 8.41 ratio.
`CACAGAGCAGCACCUACCUCCUCCUUCUUUCCACACCUGCAAACUCUUUUACUUGGGCUGAAUAUUUAGUGUAAUUACAUCUCAGCUUUUGAGGGCUCUGUGGCAAAUUCCCGGAUUAAA` gave a bound/input enrichment of 0.668 ratio.

Mixed results
For `PhoQ, residues 284 288 289 292 302 303 GTAMQF`, the fold induction was 0.793 (PhoP, residues 12 14 15 18 19 TPLRH (Escherichia coli, UniProt P23836); Sort-seq, measured: YFP reporter; E. coli; PhoQ-PhoP variant library, together with: 10 µM Mg2+; reference: high Mg2+ state, higher = stronger signaling).
